Published values gathered from unrelated publications.
Compare with care: the assays were run in different laboratories. Several values in a cell are separate wells, animals, samples, runs or records. Numbers after ± are the reported error.
UniProt P00519, sequence (whole entry, looked up): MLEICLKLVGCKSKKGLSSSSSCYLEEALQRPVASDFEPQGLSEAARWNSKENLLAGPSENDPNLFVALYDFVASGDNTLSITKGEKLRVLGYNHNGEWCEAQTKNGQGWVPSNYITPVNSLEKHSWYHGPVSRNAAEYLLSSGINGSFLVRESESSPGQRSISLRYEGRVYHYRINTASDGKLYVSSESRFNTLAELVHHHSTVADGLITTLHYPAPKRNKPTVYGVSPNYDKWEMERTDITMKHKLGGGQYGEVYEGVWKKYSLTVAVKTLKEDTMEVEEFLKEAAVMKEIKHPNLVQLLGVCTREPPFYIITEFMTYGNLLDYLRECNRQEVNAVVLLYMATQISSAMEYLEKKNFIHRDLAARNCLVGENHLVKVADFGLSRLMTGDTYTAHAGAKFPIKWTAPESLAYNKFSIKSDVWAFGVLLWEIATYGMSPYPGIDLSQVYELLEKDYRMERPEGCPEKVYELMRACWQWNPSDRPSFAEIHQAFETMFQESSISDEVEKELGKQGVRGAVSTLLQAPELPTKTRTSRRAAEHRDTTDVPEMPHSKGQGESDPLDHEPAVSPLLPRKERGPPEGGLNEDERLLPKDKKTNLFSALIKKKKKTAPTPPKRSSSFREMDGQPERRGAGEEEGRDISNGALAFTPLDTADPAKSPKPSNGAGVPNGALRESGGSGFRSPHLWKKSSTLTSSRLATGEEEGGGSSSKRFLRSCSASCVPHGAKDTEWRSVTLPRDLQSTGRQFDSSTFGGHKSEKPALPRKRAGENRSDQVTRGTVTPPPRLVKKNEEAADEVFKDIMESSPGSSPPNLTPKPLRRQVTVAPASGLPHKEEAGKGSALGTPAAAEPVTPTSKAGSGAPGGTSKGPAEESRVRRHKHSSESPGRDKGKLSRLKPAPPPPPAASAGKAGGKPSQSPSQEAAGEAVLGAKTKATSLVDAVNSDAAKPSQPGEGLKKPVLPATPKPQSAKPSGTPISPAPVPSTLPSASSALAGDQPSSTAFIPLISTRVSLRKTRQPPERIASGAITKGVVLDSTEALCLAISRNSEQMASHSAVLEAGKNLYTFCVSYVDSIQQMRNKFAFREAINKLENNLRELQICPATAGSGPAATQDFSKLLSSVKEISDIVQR

For `CC[C@H](C)[C@H](NC(=O)[C@H](Cc1ccc(O)cc1)NC(=O)[C@@H](NC(=O)[C@H](CCCNC(=N)N)NC(=O)[C@@H](N)CC(=O)O)C(C)C)C(=O)N[C@@H](Cc1c[nH]cn1)C(=O)N1CCC[C@H]1C(=O)O`, the AUC was 790 ± 210 ng·h/mL (noncompartmental; Beagle dogs, both sexes, plasma; subcutaneous, 10 mg/kg/day, day 27).
Under “organ-to-body weight ratio”, `O=C1NC2(CC2)COc2ncc(F)cc2[C@H]2COCCN2c2ccn3ncc1c3n2` is recorded as 0.295 ± 0.005% (Sprague-Dawley rat, male, heart; oral, 10 mg/kg/day, 4 weeks dosing, end of recovery).
With `COC(=O)[C@H]1[C@@H](c2ccc(Cl)c(Cl)c2)C[C@@H]2CC[C@H]1N2CCCCCc1c2ccccc2cc2ccccc12` the pKa was 5.6 (fluorometric titration; 1 µM, 10% DMSO).
The relative abundance of `COc1ccccc1-c1n[nH]c2nc(NC3CCN(C(=O)Cc4ccc(F)cc4F)CC3)ncc12` is reported as 0.87 (bead binding, competition bead pull-down, item: LMJF.27.1300; Leishmania donovani axenic amastigote extract; 10 µM; baseline: vehicle).
For `Cc1ccccc1-c1ccc(-c2nc(-c3ccc(CN(C)CCCC(=O)O)c([18F])c3)no2)cc1C(F)(F)F`, the tracer uptake was 1.34 %ID/g (rat, heart; 5 min).
The solubility of `Cc1n[nH]c(C)c1CCCOc1cc(OCCCCCCNCCOCCOCCn2cc(CNc3ccc(C(=O)O)cc3)nn2)cc(C(=O)O)c1` is reported as no less than 200 µM (water; 72 (unit not given), pH 3.5, 37 °C).
The Cmax of `CCCCCCCCCCCCCCCC(=O)N[C@@H](CCC(=O)NCCOCCOCCC(=O)NCCOCCOCCC(=O)NCCCC[C@H](NC(=O)[C@H](CC(=O)O)NC(=O)[C@H](CC(C)C)NC(=O)[C@H](Cc1ccc(O)cc1)NC(=O)[C@H](CCCCN)NC(=O)[C@H](CO)NC(=O)[C@H](Cc1ccc(O)cc1)NC(=O)[C@H](CC(=O)O)NC(=O)[C@H](CO)NC(=O)[C@@H](NC(=O)[C@H](Cc1ccccc1)NC(=O)[C@@H](NC(=O)CNC(=O)[C@H](CCC(N)=O)NC(=O)[C@@H](CO)NC(=O)[C@@H](N)Cc1c[nH]cn1)[C@@H](C)O)[C@@H](C)O)C(=O)N[C@@H](CCCNC(=N)N)C(=O)N[C@@H](CCCNC(=N)N)C(=O)N[C@@H](C)C(=O)N[C@@H](CCC(N)=O)C(=O)N[C@@H](CC(=O)O)C(=O)N[C@@H](Cc1ccccc1)C(=O)N[C@H](C(=O)N[C@@H](CCC(N)=O)C(=O)N[C@@H](Cc1c[nH]c2ccccc12)C(=O)N[C@@H](CC(C)C)C(=O)N[C@@H](CC(C)C)C(=O)N[C@@H](CC(N)=O)C(=O)N[C@H](C(=O)NCC(=O)NCC(=O)N1CCC[C@H]1C(=O)N[C@@H](CO)C(=O)N[C@@H](CO)C(=O)NCC(=O)N[C@@H](C)C(=O)N1CCC[C@H]1C(=O)N1CCC[C@H]1C(=O)N1CCC[C@H]1C(=O)N[C@@H](CO)C(N)=O)[C@@H](C)O)C(C)C)C(=O)O` is reported as 23.7 ng/mL (rhesus monkey, female, plasma; subcutaneous, 20 µg/kg, day 1, toxicokinetics, mean).
For `CC1(C)C(NC(=O)C(=NOC2(C(=O)O)CC2)c2csc(N)n2)C(=O)N1OS(=O)(=O)O` (stereo not drawn), “teratogenic index LD50/EC50” read less than 1 (zebrafish embryos).
With `CC(C)=CCC/C(C)=C\CCn1cc(CC(P(=O)(O)O)P(=O)(O)O)nn1` the biliary excretion was 0.33% (mouse CD-1; intravenous, 0.3 mg/kg, 2 h; baseline: dose).
`COc1cnc2cccc(N3CCc4c(cc(Cn5ccnc5)cc4-c4cn(C)nc4C(F)(F)F)C3=O)c2c1` has a body weight of 22.5 g and 23.7 g and 20.7 g and 24.7 g and 23.1 g (BALB/c nude mice, MV4-11 xenograft; intraperitoneal, 100 mg/kg, day 35).
`CC(C)C[C@H](NC(=O)[C@H](CCCNC(=N)N)NC(=O)[C@H](CCC(=O)O)NC(=O)CNC(=O)[C@H](CCCCN)NC(=O)[C@@H](NC(=O)[C@H](Cc1ccccc1)NC(=O)[C@H](Cc1c[nH]c2ccccc12)NC(=O)[C@H](CCCCN)NC(=O)[C@H](CCCCN)NC(=O)[C@H](Cc1c[nH]c2ccccc12)NC(=O)CN)[C@@H](C)O)C(=O)N[C@@H](CO)C(=O)N[C@@H](CCC(N)=O)C(=O)N[C@@H](CCCNC(=N)N)C(=O)N[C@@H](Cc1c[nH]cn1)C(=O)N[C@@H](Cc1ccccc1)C(=O)N[C@@H](C)C(=O)O`: “chronic toxic concentration” 25 µM (zebrafish embryos 4 hpf, E3 medium; 24 h).
`CS(C)(=O)=Nc1ccc(-c2ccc(-c3nc4cc(O[C@@H]5CO[C@H]6[C@@H]5OC[C@H]6O)[nH]c4cc3F)cc2)cc1` has an inhibition of -20% (ABL1 (Homo sapiens, UniProt P00519); enzyme activity, inhibitor; 10 µM).
With `CCCC[C@H]1C(=O)N(C)[C@@H](CCCC)C(=O)N[C@@H](CCCNC(=O)CN2CCN(CC(=O)O)CCN(CC(=O)O)CCN(CC(=O)O)CC2)C(=O)N[C@H](C(=O)NCC(N)=O)CSCC(=O)N[C@@H](Cc2ccc(O)cc2)C(=O)N(C)[C@@H](C)C(=O)N[C@@H](CC(N)=O)C(=O)N2CCC[C@H]2C(=O)N[C@@H](Cc2c[nH]cn2)C(=O)N[C@@H](CC(C)C)C(=O)N(C)CC(=O)N[C@@H](Cc2c[nH]c3ccccc23)C(=O)N[C@@H](CO)C(=O)N[C@@H](Cc2c[nH]c3ccccc23)C(=O)N1C` [gallium-68 labelled] the tissue uptake was 4 ± 0.62 %ID/g (NOD/SCID mice with CHO-hPD-L1 xenograft, skin; 30 min post injection).
For `CSCC[C@H](N)C(=O)N[C@@H](C)C(=O)N[C@@H](Cc1c[nH]c2ccccc12)C(=O)N[C@@H](Cc1c[nH]cn1)C(=O)N[C@@H](CC(=O)O)C(=O)N[C@@H](CC(=O)O)C(=O)N[C@@H](CCC(=O)O)C(=O)N[C@@H](CCC(=O)O)C(=O)N[C@@H](Cc1ccccc1)C(=O)N[C@@H](C)C(=O)N[C@@H](CCCNC(=N)N)C(=O)N[C@@H](CCCNC(=N)N)C(=O)N[C@@H](CCCNC(=N)N)C(=O)N[C@@H](CCCNC(=N)N)C(=O)NCCCCCC(=O)NCCCCC(NC(=O)CCCCCNC(=O)[C@H](CCCNC(=N)N)NC(=O)[C@H](CCCNC(=N)N)NC(=O)[C@H](CCCNC(=N)N)NC(=O)[C@H](CCCNC(=N)N)NC(=O)[C@H](C)NC(=O)[C@H](Cc1ccccc1)NC(=O)[C@H](CCC(=O)O)NC(=O)[C@H](CCC(=O)O)NC(=O)[C@H](CC(=O)O)NC(=O)[C@H](CC(=O)O)NC(=O)[C@H](Cc1c[nH]cn1)NC(=O)[C@H](Cc1c[nH]c2ccccc12)NC(=O)[C@H](C)NC(=O)[C@@H](N)CCSC)C(=O)NCCCCC(NC(=O)C(CCCCNC(=O)CCCCCNC(=O)[C@H](CCCNC(=N)N)NC(=O)[C@H](CCCNC(=N)N)NC(=O)[C@H](CCCNC(=N)N)NC(=O)[C@H](CCCNC(=N)N)NC(=O)[C@H](C)NC(=O)[C@H](Cc1ccccc1)NC(=O)[C@H](CCC(=O)O)NC(=O)[C@H](CCC(=O)O)NC(=O)[C@H](CC(=O)O)NC(=O)[C@H](CC(=O)O)NC(=O)[C@H](Cc1c[nH]cn1)NC(=O)[C@H](Cc1c[nH]c2ccccc12)NC(=O)[C@H](C)NC(=O)[C@@H](N)CCSC)NC(=O)CCCCCNC(=O)[C@H](CCCNC(=N)N)NC(=O)[C@H](CCCNC(=N)N)NC(=O)[C@H](CCCNC(=N)N)NC(=O)[C@H](CCCNC(=N)N)NC(=O)[C@H](C)NC(=O)[C@H](Cc1ccccc1)NC(=O)[C@H](CCC(=O)O)NC(=O)[C@H](CCC(=O)O)NC(=O)[C@H](CC(=O)O)NC(=O)[C@H](CC(=O)O)NC(=O)[C@H](Cc1c[nH]cn1)NC(=O)[C@H](Cc1c[nH]c2ccccc12)NC(=O)[C@H](C)NC(=O)[C@@H](N)CCSC)C(N)=O` (stereo partly drawn), “mean tissue distribution” read 6.74% (C57BL/6 mouse female, spine; dose not given, 3 h; baseline: total).
With `CC[C@H](C)[C@H](NC(=O)[C@H](CCCCN)NC(=O)CNC(=O)[C@H](CC(C)C)NC(=O)[C@H](Cc1ccccc1)NC(=O)[C@H](CCCCN)NC(=O)[C@H](CO)NC(=O)[C@H](Cc1ccccc1)NC(=O)[C@H](Cc1c[nH]c2ccccc12)NC(=O)[C@H](CCC(N)=O)NC(=O)[C@@H](NC(=O)[C@H](Cc1ccccc1)NC(=O)CCCCCNC(=O)CN1CCN(CC(=O)O)CCN(CC(=O)O)CCN(CC(=O)O)CC1)C(C)C)C(=O)N[C@@H](CCC(=O)O)C(=O)N1CCC[C@H]1C(=O)N[C@@H](CC(=O)O)C(=O)N[C@H](C(=O)N[C@@H](CO)C(=O)N[C@@H](CCC(N)=O)C(=O)N[C@H](C(=O)N[C@@H](CCC(N)=O)C(=O)N[C@@H](CC(=O)O)C(=O)N1CCC[C@H]1C(=O)N[C@@H](CC(N)=O)C(=O)N[C@@H](CC(=O)O)C(=O)N[C@@H](CCC(N)=O)C(=O)N[C@@H](Cc1ccc(O)cc1)C(=O)N[C@@H](CCC(=O)O)C(=O)N1CCC[C@H]1C(=O)N[C@@H](Cc1ccccc1)C(=O)O)C(C)C)C(C)C` [copper-64 labelled] the tissue uptake was 35.3 ± 2.7 %ID/g (C57BL/6 mice, kidneys; added: LPS 3 mg/kg intratracheal).
`N#Cc1ccc(N2N=C3c4ccc(C(=O)O)cc4CCC3C2C2CCCC2)cc1Cl` (stereo not drawn) gave an intrinsic clearance of 7.1 µL/min/mg (mouse, liver microsomes; 1 µM).
The MTD of `CN[C@H](CC(C)C)C(=O)N[C@H]1C(=O)N[C@@H](CC(N)=O)C(=O)N[C@H]2C(=N)N[C@H]3C(=O)N[C@H](C(=O)N[C@H](C(=O)NCCCNC(=N)N)c4cc(O)cc(O)c4-c4cc3ccc4O)[C@H](O)c3ccc(c(Cl)c3)Oc3cc2cc(c3O[C@@H]2O[C@H](CO)[C@@H](O)[C@H](O)[C@H]2O[C@H]2C[C@](C)(NCc3ccc(-c4ccc(Cl)cc4)cc3)[C@H](O)[C@H](C)O2)Oc2ccc(cc2Cl)[C@H]1O` is reported as no less than 25 mg/kg (mouse).
`CC(=O)NCCCC[C@@H]1NC(=O)[C@H](Cc2c[nH]c3c(C)cccc23)NC(=O)[C@H]([C@@H](C)O)NC(=O)[C@H](CC(N)=O)NC(=O)[C@@H](NC(C)=O)C(C)(C)SSC(C)(C)[C@@H](C(=O)N[C@@H](Cc2ccc(OCCN)cc2)C(=O)N[C@@H](Cc2ccc3ccccc3c2)C(=O)NC2(C(=O)N[C@@H](CCC(=O)O)C(=O)N[C@@H](CC(N)=O)C(=O)N[C@@H](Cc3cccnc3)C(=O)N(C)CC(N)=O)CCOCC2)NC1=O` gave an unbound fraction of 74.2 ± 3.2% (equilibrium dialysis; albumin plus glycoprotein; 0.1 µM, albumin 4%, glycoprotein 0.07%).

A few entries again:
With `CC(C)=CCC/C(C)=C\CCn1cc(CC(P(=O)(O)O)P(=O)(O)O)nn1` the biliary excretion was 0.33% (mouse CD-1; intravenous, 0.3 mg/kg, 2 h; baseline: dose).
`CS(C)(=O)=Nc1ccc(-c2ccc(-c3nc4cc(O[C@@H]5CO[C@H]6[C@@H]5OC[C@H]6O)[nH]c4cc3F)cc2)cc1` has an inhibition of -20% (ABL1 (Homo sapiens, UniProt P00519); enzyme activity, inhibitor; 10 µM).
